Assay results from different studies.
Every numbered part comes from another study and shows a few of its results, in no order. Changes are numbered by the printed parent chain.

Block 1
Target: RING finger protein unkempt homolog, zinc fingers 1-6, GST-SBP tag (UNK, Homo sapiens, UniProt Q9C0B0, residues 30-357)
UniProt Q9C0B0, sequence (30-357, looked up): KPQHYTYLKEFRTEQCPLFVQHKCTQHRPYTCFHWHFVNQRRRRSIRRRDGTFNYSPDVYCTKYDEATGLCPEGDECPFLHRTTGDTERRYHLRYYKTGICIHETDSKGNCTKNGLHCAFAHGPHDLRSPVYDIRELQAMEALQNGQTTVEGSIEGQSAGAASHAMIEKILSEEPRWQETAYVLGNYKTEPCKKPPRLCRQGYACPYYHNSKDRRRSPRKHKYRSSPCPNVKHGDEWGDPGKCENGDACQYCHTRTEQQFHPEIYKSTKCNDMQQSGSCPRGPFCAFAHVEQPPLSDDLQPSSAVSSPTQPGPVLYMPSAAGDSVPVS
Method: RNA Bind-n-Seq
Form: RNA
Matrix: in vitro
Tested at: not given
Notes: RNA with constant flanks, ends assumed
Baseline: input RNA pool
Direction: higher = stronger binding
Measurement: bound/input enrichment
Strand = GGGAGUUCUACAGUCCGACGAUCCUGUGUAAGUAGUGGAUACAACAUAGGAACAUCCAAGGUACUGACUGCAGCUUUAGAUACGUGAUCCGUGUGAGAGUCACAUUCUCUGUGUGAAGAUACAUGUCUUUGAGUAAAUUUCAUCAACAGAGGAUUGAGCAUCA; result = 0.141 ratio
Strand = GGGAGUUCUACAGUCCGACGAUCUGGCACUUGUGUAAAACUGUCCCUGCAGAUUGAGCAGGAAGUAAAAACAAAUGGAAAUGCUUCGGACCGUGGCAGGGGUGGGGGUUGCUAAGGAAAGGGUGGGAUGGGAGUGGGUAAAGACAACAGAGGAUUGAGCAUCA; result = 0.716 ratio
Strand = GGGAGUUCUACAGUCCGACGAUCGACAUCUGUCGUAGAAACCUCGAUAUUGAGCGUCCAACCUAUACUAACCUGAAUAGGUUAACCGGUCAAAUUGUGUCCUCCAUCACUGCUUCCCUGAGAUUUGAUGGAGCCCUGAAUGUUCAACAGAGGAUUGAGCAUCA; result = 0.109 ratio
Strand = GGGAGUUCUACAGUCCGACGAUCCUUCAUGUUUCUGAAAAUGUGAUAUUCACAGAUGUGAAUUCUAUACUUCGCUACUUGGCCCGAGUUGCAACUACAGCUGGGUUAUAUGGCUCUAAUCUGAUGGAACAUACUGAGAUUGAUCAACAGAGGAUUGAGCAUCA; result = 0.127 ratio
Strand = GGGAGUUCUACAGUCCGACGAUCUGUUUGGUUCUGUGUAUGCAGACACAUGAGCUGUGGGGUAACAAUCAAAACGUAAUCUUUCACCGACCGCCAUUACAUUUCUUUAAAUUUUUCAAUGCCGAUGUGUAUUCUAUAAGAGAACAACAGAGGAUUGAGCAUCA; result = 1.01 ratio
Strand = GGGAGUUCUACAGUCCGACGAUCGGUCACACCAGGCCUACAAGGGCAGAAGUUAAAUAAAUUGAACUAGGGCACUAAACUGAACCGUUGACAGUGUCAUUUUAUGUUGGAUUAUUAAUUACUGUUUUUCUUCCUGCUAUCUGUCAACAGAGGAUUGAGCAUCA; result = 0.171 ratio
Strand = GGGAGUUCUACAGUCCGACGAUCUUUGUACCAGUUAUCAAACUCUGUUUUGAUGGAAUAGAGAUUGAUAUUUUGUUUGCAAGAUCCGCACUGCAGACUAUUCCAGAAGAUUUGGACCUACGAGAUGACAGUCUGCUUAAAAACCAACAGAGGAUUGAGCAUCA; result = 0.114 ratio
Strand = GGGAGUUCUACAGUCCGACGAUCCGAGUUGAUCAAGGGGCUGCAACAGCUCUCAGUAGGAAAGACAAUGCCAGCAACAUAUACCGCAAAAAUACUGACUAUACUGAACUUCACCAGCAAAAUACAGAUUUGAUAUAUCAGACUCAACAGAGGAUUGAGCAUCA; result = 1.96 ratio
Strand = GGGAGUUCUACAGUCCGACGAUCGUACCUAGAAAUGCUGAACACUACAAGCAAAGACAUUCACACGGGCAUUAUGGCUGUGAAUACCGGAAGGAUCCAAAAAGACCCGUCGCGUGGAGAAUGGACAGUGAGAAACAUGGACAGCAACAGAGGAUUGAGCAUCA; result = 0.271 ratio
Strand = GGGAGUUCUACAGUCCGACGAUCGACCAUGAAUUAUGGAAUUUCCUAAAUGAAGCAUUCAGGAAUGGAAUGAGAGAAUGUCACACCGAAAAUAAAUGAUUUUUAAGUUAUGUCUAUUAAUUUGACUCUAGAUAUAUAUAUUUACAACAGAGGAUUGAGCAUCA; result = 2.53 ratio
Strand = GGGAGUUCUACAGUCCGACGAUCGCUGCAUCUGACAGAGCAAGUAGACGAGAGGCUGGGUGGUGGGCUCCGGCCAGCCCGAGUCUCCGAGCUGGUGGUUGGUUAUAUCUGGUGCCUGUCUCGAGGAGGGCUUGAGACACAGUGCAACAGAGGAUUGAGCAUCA; result = 0.274 ratio

Block 2
Target: CCND2, cyclin fold, Cln2 fusion (human)
Method: yeast growth competition, sequencing
Matrix: yeast
Notes: weak parent motif
Baseline: not given
Direction: higher = stronger binding
Measurement: normalised enrichment score
Parent: WEE1 docking peptide (human); HKTFRKLRLFDTP
Variant = HKTFRKLRYFDTP [L9Y]; result = 0.709
Variant = HKTFRKMRLFDTP [L7M]; result = -0.113
Variant = HKTFRKLALFDTP [R8A]; result = 0.152
Variant = HWTFRKLRLFDTP [K2W]; result = 0.183
Variant = HKTFRKLRLFDTK [P13K]; result = 0.104
Variant = HKDFRKLRLFDTP [T3D]; result = 0.212
Variant = HKTWRKLRLFDTP [F4W]; result = 0.298
Variant = PKTFRKLRLFDTP [H1P]; result = 0.512
Variant = HKTFRKLRGFDTP [L9G]; result = 0.426
Variant = HKTFRKLRLRDTP [F10R]; result = -0.27
Variant = HGTFRKLRLFDTP [K2G]; result = 0.0136
Variant = HKTFRKLRVFDTP [L9V]; result = -0.285
Variant = CKTFRKLRLFDTP [H1C]; result = 0.312
Variant = HKTFRKLMLFDTP [R8M]; result = 0.342
Variant = HSTFRKLRLFDTP [K2S]; result = 0.0553
Variant = HKTFRWLRLFDTP [K6W]; result = 0.172
Variant = HKTFRTLRLFDTP [K6T]; result = 0.168

Block 3
Target: Histone acetyltransferase KAT6A, winged helix 1, GST fusion (KAT6A, Homo sapiens, UniProt Q92794, residues 1-85)
Method: protein binding microarray
Form: double-stranded DNA, one strand shown
Matrix: in vitro
Tested at: not given
Notes: 8-mer, flanks averaged, mean of 2 arrays, mostly near background
Baseline: not given
Direction: higher = stronger binding
Measurement: E-score
Residues (chain): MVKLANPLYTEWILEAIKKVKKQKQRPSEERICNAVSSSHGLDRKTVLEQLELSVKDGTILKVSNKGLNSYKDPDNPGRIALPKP
Strand = CGTGCAAC; result = -0.0144
Strand = ACGTGGGG; result = -0.192
Strand = ATTTTAAG; result = -0.129
Strand = GTTGTGGA; result = -0.201
Strand = ACCACGCG; result = 0.296
Strand = TACACACA; result = -0.127
Strand = CATGTCAC; result = 0.0375
Strand = CAGCGAGG; result = -0.112
Strand = CAGCGTTA; result = 0.0726
Strand = AGATGATA; result = -0.0986
Strand = CTAGGTTA; result = -0.092
Strand = CCGGCCTC; result = 0.18
Strand = CTTACATA; result = -0.138
Strand = ACCGTAGG; result = 0.176
Strand = AAAGGTAT; result = -0.0528
Strand = CTCGGTTC; result = -0.124
Strand = ACAAGTTC; result = -0.111
Strand = ACCGGCAC; result = 0.283
Strand = AAGTACCG; result = 0.197
Strand = GACCGATC; result = 0.114

Block 4
Target: ABI1, truncated, D143A, DHFR fusion (Arabidopsis thaliana)
Method: DHFR PCA, deep sequencing
Matrix: yeast
Notes: methotrexate growth selection, single substitutions
Together with: (+)-ABA 2500 µM
Baseline: wild-type fitted maximum
Direction: higher = stronger binding
Measurement: relative binding score
Parent: PYL1, truncated, DHFR fusion (Arabidopsis thaliana); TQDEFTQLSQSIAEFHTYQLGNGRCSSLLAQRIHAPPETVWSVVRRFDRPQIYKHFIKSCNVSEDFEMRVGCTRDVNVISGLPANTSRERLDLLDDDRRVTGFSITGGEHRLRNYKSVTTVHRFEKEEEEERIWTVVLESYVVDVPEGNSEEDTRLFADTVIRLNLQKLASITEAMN; partner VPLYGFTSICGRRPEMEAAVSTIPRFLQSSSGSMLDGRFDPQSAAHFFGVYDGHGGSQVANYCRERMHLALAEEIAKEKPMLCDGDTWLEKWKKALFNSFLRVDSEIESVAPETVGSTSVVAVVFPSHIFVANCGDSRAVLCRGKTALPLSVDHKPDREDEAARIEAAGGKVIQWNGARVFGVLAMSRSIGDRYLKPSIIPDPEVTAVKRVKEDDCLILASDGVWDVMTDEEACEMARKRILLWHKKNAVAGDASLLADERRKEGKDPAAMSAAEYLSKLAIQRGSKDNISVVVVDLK
Variant = E147K; result = 95.5%
Variant = E151A; result = 98.6%
Variant = D3Q; result = 107%
Variant = S117N; result = 79.8%
Variant = T101K; result = 54.6%
Variant = F103C; result = 50.1%
Variant = R74D; result = 3.15%
Variant = D144P; result = 83.9%
Variant = T101G; result = 60%
Variant = F15G; result = 53.1%
Variant = G21L; result = 94.2%
Variant = T1Q; result = 111%
Variant = Q10V; result = 100%
Variant = V44R; result = 70.6%
Variant = Q2S; result = 96.9%
Variant = A13N; result = 94.4%

Block 5
Target: Sal-like protein 4, full length isoform B (SALL4, Homo sapiens, UniProt Q9UJQ4-2, residues 1-616)
Method: universal PBM
Form: double-stranded DNA, one strand shown
Matrix: in vitro
Tested at: not given
Notes: 8-mer, flanks averaged, mean of replicates
Direction: higher = stronger binding
Measurement: E-score
Residues (chain): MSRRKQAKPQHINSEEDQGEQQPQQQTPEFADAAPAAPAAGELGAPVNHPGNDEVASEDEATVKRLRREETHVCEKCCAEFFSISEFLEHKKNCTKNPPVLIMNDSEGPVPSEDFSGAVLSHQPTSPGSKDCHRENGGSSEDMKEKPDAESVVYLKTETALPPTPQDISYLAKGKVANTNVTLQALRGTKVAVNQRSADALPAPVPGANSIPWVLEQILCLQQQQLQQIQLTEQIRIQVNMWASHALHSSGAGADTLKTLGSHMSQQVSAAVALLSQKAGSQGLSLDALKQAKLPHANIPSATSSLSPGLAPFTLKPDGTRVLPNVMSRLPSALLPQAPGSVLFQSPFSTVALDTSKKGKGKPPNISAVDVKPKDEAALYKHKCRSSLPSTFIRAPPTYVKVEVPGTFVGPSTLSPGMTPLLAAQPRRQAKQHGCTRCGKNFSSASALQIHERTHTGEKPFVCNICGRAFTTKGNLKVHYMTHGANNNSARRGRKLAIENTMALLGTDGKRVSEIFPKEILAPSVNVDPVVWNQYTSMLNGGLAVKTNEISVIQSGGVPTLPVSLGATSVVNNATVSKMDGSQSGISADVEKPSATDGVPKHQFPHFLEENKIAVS
Strand = CTGCGCCC; result = -0.393
Strand = ACAGTAGG; result = 0.0237
Strand = ATCAGGAC; result = -0.137
Strand = CTGTAGTA; result = 0.272
Strand = GTGACCAC; result = -0.285
Strand = ACCCATAA; result = 0.233
Strand = ATTCCAAG; result = 0.0996
Strand = GCCACTGA; result = -0.167
Strand = GCTTCGAC; result = -0.181
Strand = TAACCGGA; result = -0.106
Strand = CCATTGTA; result = 0.186
Strand = ACCAGTAC; result = -0.0341
Strand = ATTAACCA; result = 0.105
Strand = ATTGCGAG; result = 0.0686
Strand = CCAAGGCG; result = -0.172
Strand = CTTGGATC; result = -0.149

A few entries again (block 1):
Strand = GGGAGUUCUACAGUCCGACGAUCUGGCACUUGUGUAAAACUGUCCCUGCAGAUUGAGCAGGAAGUAAAAACAAAUGGAAAUGCUUCGGACCGUGGCAGGGGUGGGGGUUGCUAAGGAAAGGGUGGGAUGGGAGUGGGUAAAGACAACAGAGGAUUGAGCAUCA; result = 0.716 ratio
Strand = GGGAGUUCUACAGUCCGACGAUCCGAGUUGAUCAAGGGGCUGCAACAGCUCUCAGUAGGAAAGACAAUGCCAGCAACAUAUACCGCAAAAAUACUGACUAUACUGAACUUCACCAGCAAAAUACAGAUUUGAUAUAUCAGACUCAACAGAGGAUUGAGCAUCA; result = 1.96 ratio
Strand = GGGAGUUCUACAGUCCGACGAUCUUUGUACCAGUUAUCAAACUCUGUUUUGAUGGAAUAGAGAUUGAUAUUUUGUUUGCAAGAUCCGCACUGCAGACUAUUCCAGAAGAUUUGGACCUACGAGAUGACAGUCUGCUUAAAAACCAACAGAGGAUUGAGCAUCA; result = 0.114 ratio
Strand = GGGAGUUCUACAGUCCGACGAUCGGUCACACCAGGCCUACAAGGGCAGAAGUUAAAUAAAUUGAACUAGGGCACUAAACUGAACCGUUGACAGUGUCAUUUUAUGUUGGAUUAUUAAUUACUGUUUUUCUUCCUGCUAUCUGUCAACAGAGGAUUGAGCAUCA; result = 0.171 ratio
Strand = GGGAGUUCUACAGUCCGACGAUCCUGUGUAAGUAGUGGAUACAACAUAGGAACAUCCAAGGUACUGACUGCAGCUUUAGAUACGUGAUCCGUGUGAGAGUCACAUUCUCUGUGUGAAGAUACAUGUCUUUGAGUAAAUUUCAUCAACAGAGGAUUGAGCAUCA; result = 0.141 ratio
